Measurements collected from several papers.
A part holds a random share of what one study measured. Positions count from the first letter of the parent shown.

Study 1
Target: CCNA1, cyclin fold, Cln2 fusion (human)
Method: yeast growth competition, sequencing
Sample: yeast
Notes: weak parent motif
Relative to: not given
Direction: higher = stronger binding
Quantity: normalised enrichment score
Starting sequence: ORC1 docking peptide (human); PRARKRLELGNLG
PRARKRLFLGNLG [E8F]: 0.31
PRARKRLELPNLG [G10P]: 0.268
PRARKRLELINLG [G10I]: 0.403
PRAKKRLELGNLG [R4K]: 0.151
PRARKRLKLGNLG [E8K]: 0.0173
PPARKRLELGNLG [R2P]: 0.316
RRARKRLELGNLG [P1R]: 0.422

Study 2
Target: RING finger protein unkempt homolog, zinc fingers 1-6, GST-SBP tag (UNK, Homo sapiens, UniProt Q9C0B0, residues 30-357)
Sequence of UniProt Q9C0B0 (30-357, looked up): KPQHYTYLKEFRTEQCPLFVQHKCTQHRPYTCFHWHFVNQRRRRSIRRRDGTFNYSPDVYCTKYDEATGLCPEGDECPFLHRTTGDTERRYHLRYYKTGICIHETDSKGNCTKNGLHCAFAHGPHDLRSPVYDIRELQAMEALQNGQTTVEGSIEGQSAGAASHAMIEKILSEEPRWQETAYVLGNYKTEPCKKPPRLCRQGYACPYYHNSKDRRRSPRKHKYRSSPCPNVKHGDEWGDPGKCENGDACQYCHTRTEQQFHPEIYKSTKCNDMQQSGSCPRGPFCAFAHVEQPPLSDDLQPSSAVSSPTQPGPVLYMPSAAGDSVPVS
Method: RNA Bind-n-Seq
Form: RNA
Sample: in vitro
Tested at: not given
Notes: RNA with constant flanks, ends assumed
Relative to: input RNA pool
Direction: higher = stronger binding
Quantity: bound/input enrichment
All sequences stand within: GGGAGUUCUACAGUCCGACGAUC … CAACAGAGGAUUGAGCAUCA
GAAUGCGGGUGAUCGGCAUGGCUCGCCUGGUGCUCGGUCUGGUGAGCUGCACCUUCUUUCCCGCAGUCAGCGGUCUGUAUUCUUCUAGUGAUGAUGUCAUCGAGUUGACGCCAUCAAAUU: 0.102 ratio
UUAAUGUCUGCCAGAACACAAUUUAUAUGCCUUAUUGGCUUCAUUAAACUUUUAGAAAACUUCCGCAUUUGUUACUUUUUUCCAUUGCGUUUACUUUCAAAUGCACCUAAUGAAUUUGUC: 1.08 ratio
AGACGACGAGAAUAUCAAUUAUCUGACUCUACCAAAUACUAUCUUAAUGACUUGGACCGCGCCGCUGACCCUGCCUACCUGCCUACGCAACAAGAUGUGCUUAGAGUUCGAGUCCCCACC: 0.305 ratio
GUCCCAGGCUCUCUGUUGACAGAGUUGGCUCUCUAGAGUCUCGUACUUUAUUCAUAAAUCCCGCCGGAGCGAGGACACAUUAGUAGAUGCAGAAGUGAAAUGUUUUCACUGUCACUGUGA: 1.51 ratio
CUCCAUUUCUUCUCAUUUUGUGGCCUCGGGCUCCACCAGCUGCUCCCCAGUGACAGUCCCCCGCUUCCUUCUACCAUCUACUGACUGUCUCCACUGAGCCUUUCCUACCUUCCCUUCACA: 0.529 ratio
UUAAACAGUUGAACUGUGUAAAUGUUUCUUGAUCUCUAAGGUAUUAUGUUUGCCUUCUCUCCGUUAUUUCUGGGUUGUCACAAAGCUCAGUAUCAUGGUUUGACAGAAGCAGUUAUGUGA: 0.172 ratio
AACACAUUUAAUGAACAUCAUACACAAGACAGCAACAUACCUUUCUUUCUUGGUCAGACCAUCCGAUGGAGAGGAUUAUGUCUACUGAAAAUACUUUUGGCACGCCAUCACUUCAGCAAA: 0.252 ratio
AAGGAUGCUUUCGAUAAAGGUUCACUUUUUGGAGGCUCUGUAAAACUGGCUCUUGCAAGCUCCGGAUAUGAAAAGAGCUGUGUGUUGUUCAAUUGUGCAGCCUUAGCUAGCCAAAUUGCA: 0.221 ratio

Study 3
Target: ABI1, truncated, D143A, DHFR fusion (Arabidopsis thaliana)
Method: DHFR PCA, deep sequencing
Sample: yeast
Notes: methotrexate growth selection, single substitutions
With: (+)-ABA 0.11 µM
Relative to: wild-type fitted maximum
Direction: higher = stronger binding
Quantity: relative binding score
Starting sequence: PYL1, truncated, DHFR fusion (Arabidopsis thaliana); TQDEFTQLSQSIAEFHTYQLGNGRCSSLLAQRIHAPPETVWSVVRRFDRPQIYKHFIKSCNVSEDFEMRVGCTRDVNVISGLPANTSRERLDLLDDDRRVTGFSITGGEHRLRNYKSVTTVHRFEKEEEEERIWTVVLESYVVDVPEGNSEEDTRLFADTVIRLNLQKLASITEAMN
Q2E: 41.1%
G71K: -6.74%
T6W: 29%
P36Y: 5.26%
E4G: 7.86%
N85V: 65.6%
P37Q: 9.45%
T73R: 1.49%

Single results of other studies
PhoQ, residues 284 288 289 292 302 303 SLSLLA  fold induction (PhoP, residues 12 14 15 18 19 AGCRL (Escherichia coli, UniProt P23836); Sort-seq, item: YFP reporter; E. coli; PhoQ-PhoP variant library, with: 10 µM Mg2+; relative to: high Mg2+ state, higher = stronger signaling): 24

Some of these lines once more (study 3):
Q2E: 41.1%
